Published values pooled from the literature.
Parts stem from different laboratories: compare values within a part only. Values joined by “and” are separate records of one study, mostly repeats; a detail may differ.

Sample 1 — method: RNA Bind-n-Seq; form: RNA; sample: in vitro; tested at: 365 nM; reference: no-protein control; reading: higher = stronger binding
Target: RNA binding protein fox-1 homolog 2, RRM domain, GST-SBP tag (RBFOX2, Homo sapiens, UniProt O43251-10, residues 100-194)
Notes: natural RNA segment, single round, ends assumed
Shared flanks, not repeated: GGGAGUUCUACAGUCCGACGAUC … UGGAAUUCUCGGGUGCCAA
Sequence	RBNS enrichment (R)
GAAGCCACCCAUGGGGACUGGGGACCAGGGGCCUUCAGCAUGGCUUCUAGGUUCCCUCCUCCCCCUACCCCAUCUCCUACCUCCACAGUACAGACUGUCCCCAACUUAAC	0.577
GACGAAGGUCACUUAGGCGAUACCCAUGAAGAAUCAAAAAGUUUAUUUUUUUUCUUCCAACAUGUGAUGUGUUGCUCUCCAUUCUUUUAAAUCUCGCACUACAUCUGAUA	0.389
AGGCUGAGAGCUGAGCAGAGCACACUAGGCAGGGAAAGCCAUGUGGGUCUCCAGUCCUGUUUGCCUGAAUGCUCUGGGAUCUAUGCCUAGAGCAAGCCUGAAGACGGCCC	0.39
GUAUUUUGUUUUAGAAGGUCCUGGCCCAGCGUUGGUUCUUCCUCCUGUAUCCUGUGAGGCCUGGAGCUUUUCAAACACUAGAGGGGGCCUUAGAGUAAGUGGAAAGGACU	0.458
UGCAGUGGCUUCCCAUUUGCUCUGGGAACAGUGCCUCUGUGCUGGUUAUAUGUAUGCACCACAUGUGCACACACGGGUGUUGGUGCAACUCACCAGCAGGUGUGCAGUAG	0.514
GCCCUGGUGACAGAGGAGACCCCGUCUCAAAAAUUGAUUGAUCAAUUCAGCAUCUGAGGGCUGCAAGUACAGAAGGAAUCUAUUCUCAGCAGGGCAUAGGGCACGCACUG	0.846
GCUCCUCCCAACUGCGGCUAAGCAGAGGAUGGCAGUGUUGGAAUAAGAUCUCUCAAAUCUUGGAUUAUAAUUUUAUUAGAGUUUUGUAAUAAAAUUUAUUUUAUAACAAG	0.519
UAUGUUCCCACUCCUCCUGUGUUAAUAACAUUGCUUUCAUCUUGGAUAUUUUUUUUCUACUUUGUUAACCUACUUUAUGCUUUAUCUCAAUAAAAUGCUUACCAAGGGAA	0.79

Sample 2 — action: inhibitor; tested at: 20 µM
Target: Replicase polyprotein 1ab, nsp13 helicase (rep, Severe acute respiratory syndrome coronavirus 2, UniProt P0DTD1)
Compound	inhibition
Cc1cc(-c2nc(C(=O)Nc3cn(C4CCOCC4)nc3C(N)=O)co2)ccn1	3.7%
C[N+]1(C)CCC(=C(c2ccccc2)c2ccccc2)CC1	-3.18%
Cc1cc(-c2ccc3c(c2)CC[C@H]3N2CC3(CCN(C(=O)Cc4cn5cc(C)sc5n4)CC3)C2)ncn1	5.1%
FC(F)(F)c1cc(CO[C@H]2CCCN[C@H]2c2ccccc2)cc(C(F)(F)F)c1	-7.06%
CC(OC(=O)OC1CCCCC1)OC(=O)C1=C(CSc2nnnn2CCN(C)C)CS[C@@H]2[C@H](NC(=O)Cc3csc(N)n3)C(=O)N12 (stereo partly shown)	4.07%
O=S1(=O)CCN(CN2CCS(=O)(=O)NC2)CN1	2.33%
c1ccc(C(O[C@@H]2CCCN(CCc3ccc4c(c3)OCO4)C2)c2ccccc2)cc1	-3.88%
CN[C@@H]1CCc2[nH]c3ccc(C(N)=O)cc3c2C1	-1.33%
N=C(N)NCc1cccc(I)c1	5.05%
CN(Cc1ccccc1)C(=O)[C@H](Cc1ccc2ccccc2c1)NC(=O)[C@@H]1CCCN1C(=O)Nc1ccccc1[N+](=O)[O-]	4.41%
Cc1[nH]c2ccccc2c1CCNCc1ccc(/C=C/C(=O)NO)cc1	8.21%
Cc1ccc(C(=O)Nc2ccc(CN3CCN(C)CC3)c(C(F)(F)F)c2)cc1C#Cc1cnc2[nH]ncc2c1	14.9%
O=C(NCc1ccncc1)C12CC3CC(C1)CC(c1ccc(Cl)cc1)(C3)C2	-2.15%
Cc1cc(/C=C2\SC(=O)N(c3ccccc3)C2=O)c(C)n1-c1cccnc1	5.29%
COC(=O)[C@@H]1CC2=CC(=O)CC[C@]2(C)[C@@]23O[C@@H]2C[C@@]2(C)[C@@H](CC[C@@]24CCC(=O)O4)[C@H]13	0.33%
CN(C)CCOc1cc(-c2cn[nH]c2)ccc1NC(=O)C1COc2ccccc2O1 (stereo not shown)	4.93%
CC(C(=O)O)c1ccc2c(c1)Cc1ccccc1-2 (stereo not shown)	6.43%

Sample 3 — organism: SARS-CoV-2; read-out: cytopathic effect; cells: Vero E6; tested at: 10 µM
SMILES	inhibition
COc1ccc2[nH]c([S+]([O-])Cc3ncc(C)c(OC)c3C)nc2c1 (stereo not shown)	1.3% and -5.2%
O=C(O)CCCCCCCCCCCCCCc1ccc(I)cc1	1.3%
O=C1C(Cl)=C(N2CCOCC2)C(=O)N1c1ccc(Cl)c(Cl)c1	-8% and 1.7%

Sample 4 — cell line: HEK-293T; read-out: pseudovirus infection; method: FDA-approved drug library screen; organism: VSV pseudotyped with SARS-CoV-2 spike; tested at: 10 µM; time: 16 h; reference: vehicle-treated
Structure (SMILES)	GFP-positive cells [%]
S=c1[nH]cnc2nc[nH]c12	90.3
CN1C(C(=O)Nc2ccccn2)=C(O)c2ccccc2S1(=O)=O	74.2
COc1cc([C@@H]2c3cc4c(cc3[C@H](O)[C@H]3COC(=O)[C@H]23)OCO4)cc(OC)c1OC	17.7
OC[C@@H](O)[C@@H](O)[C@H](O)[C@@H](O)CO	93.1

Sample 5 — method: protein binding microarray; form: double-stranded DNA, one strand shown; sample: in vitro; tested at: not given; reference: not given; reading: higher = stronger binding
Target: Histone acetyltransferase KAT6A, winged helix 2, GST fusion (KAT6A, Homo sapiens, UniProt Q92794, residues 85-181)
Notes: 8-mer, flanks averaged, mean of 2 arrays, mostly near background
Residues (chain): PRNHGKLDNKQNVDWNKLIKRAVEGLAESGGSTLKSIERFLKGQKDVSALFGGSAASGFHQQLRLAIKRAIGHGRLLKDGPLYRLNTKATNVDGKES
Sequence	E-score
AGCTCTAC	-0.301
CTAGGTCA	-0.0807
TTAAACAA	0.0582
AAACCGGG	0.0213
GACTACCC	-0.216
CCCCGGTA	-0.0248
ACGTGACG	-0.199
GAACTACC	-0.129

A few entries again (sample 5):
Sequence	E-score
AGCTCTAC	-0.301
CTAGGTCA	-0.0807
TTAAACAA	0.0582
AAACCGGG	0.0213
